{"data": "Experimental data of several laboratories", "note": "Numbered parts are unrelated; each lists some results of a single study. Substitutions count along the parent as printed."}
{"data": "Set 1", "target": "Centromere-binding protein 1, full length, N-terminal tag (CBF1, Saccharomyces cerevisiae, UniProt P17106, residues 1-351)", "method": "protein-binding microarray", "form": "double-stranded DNA, one strand shown", "medium": "in vitro", "tested at": "0.8 µM", "notes": "whole 60-bp probe, no competitor", "direction": "higher = stronger binding", "sequence of UniProt P17106 (whole entry, looked up)": "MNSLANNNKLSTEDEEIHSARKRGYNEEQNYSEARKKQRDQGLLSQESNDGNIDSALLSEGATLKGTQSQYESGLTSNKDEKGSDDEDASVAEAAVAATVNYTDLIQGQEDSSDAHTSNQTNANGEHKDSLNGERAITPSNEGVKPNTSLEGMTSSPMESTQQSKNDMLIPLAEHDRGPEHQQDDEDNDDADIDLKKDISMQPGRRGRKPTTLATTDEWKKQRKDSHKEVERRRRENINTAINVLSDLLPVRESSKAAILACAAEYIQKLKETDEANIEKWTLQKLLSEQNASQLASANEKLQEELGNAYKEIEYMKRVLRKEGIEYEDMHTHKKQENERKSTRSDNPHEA"}
{"Sequence": "GAAATGATAAAAAATGGTGTGAAATTATATGACTAGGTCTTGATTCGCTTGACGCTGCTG", "fluorescence intensity": "525 a.u."}
{"Sequence": "CTAGATTTTTGTGACGGTGACGTACGATCTCTATTCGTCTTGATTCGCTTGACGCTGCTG", "fluorescence intensity": "534 a.u."}
{"Sequence": "GAATTAAAAAGCTGCACGTGACTAACTAGAACCTAGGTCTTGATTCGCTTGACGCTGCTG", "fluorescence intensity": "22000 a.u."}
{"Sequence": "CTAGTGCTGCCCCGCCACATGCAATCGGGCCGTTTCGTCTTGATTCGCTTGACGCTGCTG", "fluorescence intensity": "535 a.u."}
{"Sequence": "CTAGCATCGCATTACCTCATGATGAGTAAATAGTTCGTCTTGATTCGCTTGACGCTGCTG", "fluorescence intensity": "620 a.u."}
{"Sequence": "GAACAAATTATGGAACACGTTCGGAATATTACTTAGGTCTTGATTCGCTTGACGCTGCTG", "fluorescence intensity": "718 a.u."}
{"Sequence": "CTAAAACGCTTCGGTAATCTGGTGAAATGATTGTTCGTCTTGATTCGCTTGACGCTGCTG", "fluorescence intensity": "519 a.u."}
{"Sequence": "CCTAACTACTATAGCACCGTCACATAGCTTCGTACAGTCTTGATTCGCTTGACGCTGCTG", "fluorescence intensity": "520 a.u."}
{"Sequence": "CTATATGTTTTCACGTGAGTGGCTCGTTTCTCGTTCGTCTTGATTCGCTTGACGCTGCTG", "fluorescence intensity": "4860 a.u."}
{"Sequence": "GAAGGTGTCTCTAGTGATGTCAATGAACGGATGTAGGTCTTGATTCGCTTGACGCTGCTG", "fluorescence intensity": "534 a.u."}
{"Sequence": "GAAGTCACGTACGATAACGTGATCCTGCCACAGTAGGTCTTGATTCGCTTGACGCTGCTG", "fluorescence intensity": "3080 a.u."}
{"Sequence": "CTATTACAAGAAAGTCTGATGAAATTTTTCTTTTTCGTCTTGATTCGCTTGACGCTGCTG", "fluorescence intensity": "541 a.u."}
{"data": "Set 2", "target": "RING finger protein unkempt homolog, zinc fingers 1-6, GST-SBP tag (UNK, Homo sapiens, UniProt Q9C0B0, residues 30-357)", "method": "RNA Bind-n-Seq", "form": "RNA", "medium": "in vitro", "tested at": "not given", "notes": "RNA with constant flanks, human and mouse sites, ends assumed", "reference": "input RNA pool", "direction": "higher = stronger binding", "sequence of UniProt Q9C0B0 (30-357, looked up)": "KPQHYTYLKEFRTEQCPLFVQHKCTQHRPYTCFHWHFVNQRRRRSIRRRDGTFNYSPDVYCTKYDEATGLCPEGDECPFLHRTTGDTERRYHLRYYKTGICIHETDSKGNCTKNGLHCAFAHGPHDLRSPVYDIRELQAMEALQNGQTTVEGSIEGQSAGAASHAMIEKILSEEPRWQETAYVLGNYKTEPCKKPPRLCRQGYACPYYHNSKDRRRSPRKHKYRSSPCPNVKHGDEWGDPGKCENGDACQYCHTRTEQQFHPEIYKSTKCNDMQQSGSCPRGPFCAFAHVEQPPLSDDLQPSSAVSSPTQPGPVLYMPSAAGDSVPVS"}
{"Sequence": "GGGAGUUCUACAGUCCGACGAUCAUUUUUUAUGUAGGUGAGCUAACACAGUGUAUCUAAUUGAAGAAUUCUGAUUAAUUUGUAAUAGAUAAGUUGUAUAAAAUUUUCAUACCUUAAAGUGUUUUAGAUUACUCUUCAAGUGAACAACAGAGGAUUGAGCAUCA", "bound/input enrichment": "2.11 ratio"}
{"Sequence": "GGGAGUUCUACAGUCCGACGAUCUGCACACAUUGGUAGACUGUUAUCAUUUGUGGUGGGAACCCAUGUAAAUAAGUAGACUGUAAAGAGAGACUAUCUUGCAUUAUGACUGUAUGAAUUUCUAAGUGCUGUUUGAUUGGGUUUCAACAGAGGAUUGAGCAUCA", "bound/input enrichment": "0.467 ratio"}
{"Sequence": "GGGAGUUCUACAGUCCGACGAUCUGCAUGGAAUCUGCCUCUUAACUCUUAGGAGAUUAAUGUUUGUUCCAAGGCAUUCUGCAGCUGGUAAUUACACUUUAAGUGUCAUCACUAAAAUUUUCUCCUUGUCCUAAGAGUGUGUGUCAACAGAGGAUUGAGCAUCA", "bound/input enrichment": "0.172 ratio"}
{"Sequence": "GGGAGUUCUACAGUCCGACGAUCAGCGCGGAUGCGCGGCGUGGCCACGCCCCUUCAGUGCUUGUGACGCAGGCGCCCUGGGCUUUUUGGGCGCGAAAAAGAAGCAGUCCUGGGUUGUACCCGGCGCAGCUGGGAGCGGCUGCUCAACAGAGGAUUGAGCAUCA", "bound/input enrichment": "0.129 ratio"}
{"Sequence": "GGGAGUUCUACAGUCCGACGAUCGACAUUAAAAAUUUUCUGUAUGCCUGGUGUGGCAAAAGGAAGAUGACUCCAGCCUAUGAAAUUAGAGCAGUAGGAAACAAAAACAGACAGAAAUUCAUGUGUGAGGUUCGAGUAGAAGGGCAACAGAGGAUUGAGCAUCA", "bound/input enrichment": "1.74 ratio"}
{"Sequence": "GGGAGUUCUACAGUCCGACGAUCGUGGGCUAUCAUCUUUUUUCCUGUCAUCGGUCAGAAAAAACUUGUCGGAGAUGGAUGGCAUUGGAUUAUGCAGGAAUUUCUAUUGGAAUACUGGGCUGCUAUGUCUCAGGAGUAUUUUAUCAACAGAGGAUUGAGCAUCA", "bound/input enrichment": "0.64 ratio"}
{"Sequence": "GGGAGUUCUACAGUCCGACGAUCUCUAAGGAGGCUAUGGAGAGAGCAAAUGGGAUGGAGCUGGACGGUAGAAGAAUCCGUGUGGAUUAUUCUAUCACCAAGAGAGCGCACACACCCACACCAGGCAUUUACAUGGGCAGACCACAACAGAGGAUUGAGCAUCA", "bound/input enrichment": "0.215 ratio"}
{"Sequence": "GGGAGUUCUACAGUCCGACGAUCUAGCAGAGGUAAGAAUAUGUAUUCAUAUAAUCUGCCUACUUUUGAGUUCUCAUAUUAACAUUUAGAUAACAUAUGAAGUAUGGCCCCCUUGGAUCCUUGUUUUUAAGUUACUUUCGAUGUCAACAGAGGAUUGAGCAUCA", "bound/input enrichment": "2.99 ratio"}
{"data": "Set 3", "target": "CCNA1, cyclin fold, Cln2 fusion (human)", "method": "yeast growth competition, sequencing", "medium": "yeast", "notes": "strong parent motif", "reference": "not given", "direction": "higher = stronger binding", "starting sequence": "RBL2 docking peptide (human); STTRRRLFVENDS; partner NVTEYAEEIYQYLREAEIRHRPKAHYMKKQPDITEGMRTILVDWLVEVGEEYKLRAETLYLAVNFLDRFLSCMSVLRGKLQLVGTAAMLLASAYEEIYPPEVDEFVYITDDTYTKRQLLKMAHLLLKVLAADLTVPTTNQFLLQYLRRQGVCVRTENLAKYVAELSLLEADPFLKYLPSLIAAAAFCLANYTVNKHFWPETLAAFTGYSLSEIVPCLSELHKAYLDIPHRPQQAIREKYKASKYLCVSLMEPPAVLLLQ"}
{"Variant": "R5F", "normalised enrichment score": 0.065}
{"Variant": "R4H", "normalised enrichment score": 0.425}
{"Variant": "R6N", "normalised enrichment score": 0.284}
{"Variant": "V9H", "normalised enrichment score": 0.75}
{"Variant": "N11L", "normalised enrichment score": 0.563}
{"Variant": "T2W", "normalised enrichment score": 0.492}
{"Variant": "S13A", "normalised enrichment score": 0.59}
{"Variant": "T2Q", "normalised enrichment score": 0.941}
{"Variant": "N11V", "normalised enrichment score": 0.476}
{"Variant": "S13N", "normalised enrichment score": 0.523}
{"Variant": "R6Q", "normalised enrichment score": 0.898}
{"Variant": "S13D", "normalised enrichment score": 0.772}
{"Variant": "E10L", "normalised enrichment score": 0.115}
{"data": "Set 4", "target": "ABI1, truncated, D143A, DHFR fusion (Arabidopsis thaliana)", "method": "DHFR PCA, deep sequencing", "medium": "yeast", "notes": "methotrexate growth selection, single substitutions", "added": "(+)-ABA 58 µM", "reference": "wild-type fitted maximum", "direction": "higher = stronger binding", "starting sequence": "PYL1, truncated, DHFR fusion (Arabidopsis thaliana); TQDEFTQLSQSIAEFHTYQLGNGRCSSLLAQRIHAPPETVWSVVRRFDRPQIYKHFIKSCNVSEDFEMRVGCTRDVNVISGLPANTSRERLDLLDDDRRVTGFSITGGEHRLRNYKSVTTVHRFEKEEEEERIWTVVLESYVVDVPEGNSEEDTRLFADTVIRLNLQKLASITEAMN; partner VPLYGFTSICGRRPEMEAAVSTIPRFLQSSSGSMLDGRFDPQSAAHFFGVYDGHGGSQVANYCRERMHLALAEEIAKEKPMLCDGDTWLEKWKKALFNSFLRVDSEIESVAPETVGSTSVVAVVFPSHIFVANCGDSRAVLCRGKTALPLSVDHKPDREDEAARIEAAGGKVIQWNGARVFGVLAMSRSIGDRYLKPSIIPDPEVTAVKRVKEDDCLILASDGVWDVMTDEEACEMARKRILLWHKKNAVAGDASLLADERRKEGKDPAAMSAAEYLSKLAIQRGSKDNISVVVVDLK"}
{"Variant": "S171P", "relative binding score": "14.5%"}
{"Variant": "V40G", "relative binding score": "-9.26%"}
{"Variant": "V43L", "relative binding score": "85.4%"}
{"Variant": "D97A", "relative binding score": "89.6%"}
{"Variant": "Q7P", "relative binding score": "77.3%"}
{"Variant": "F66L", "relative binding score": "72.3%"}
{"Variant": "I79K", "relative binding score": "78.4%"}
{"Variant": "G81C", "relative binding score": "37.2%"}
{"Variant": "R69T", "relative binding score": "85.8%"}
{"Variant": "L166N", "relative binding score": "7.27%"}
{"Variant": "S117Y", "relative binding score": "-13%"}
{"Variant": "E151F", "relative binding score": "71.1%"}
{"Variant": "E89R", "relative binding score": "-0.313%"}
{"Variant": "P83F", "relative binding score": "10.7%"}
{"Variant": "W134D", "relative binding score": "90.3%"}
{"Variant": "N114K", "relative binding score": "53.2%"}
{"Variant": "G23A", "relative binding score": "78.4%"}
{"Variant": "E131K", "relative binding score": "93.1%"}
{"Variant": "N85R", "relative binding score": "91.9%"}
{"note": "Excerpt of the above (set 1):"}
{"Sequence": "CTAAAACGCTTCGGTAATCTGGTGAAATGATTGTTCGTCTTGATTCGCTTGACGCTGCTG", "fluorescence intensity": "519 a.u."}
{"Sequence": "CTAGTGCTGCCCCGCCACATGCAATCGGGCCGTTTCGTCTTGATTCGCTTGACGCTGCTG", "fluorescence intensity": "535 a.u."}
{"Sequence": "GAAGGTGTCTCTAGTGATGTCAATGAACGGATGTAGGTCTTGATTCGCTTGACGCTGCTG", "fluorescence intensity": "534 a.u."}
{"Sequence": "CTATTACAAGAAAGTCTGATGAAATTTTTCTTTTTCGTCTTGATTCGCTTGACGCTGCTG", "fluorescence intensity": "541 a.u."}
{"Sequence": "GAAGTCACGTACGATAACGTGATCCTGCCACAGTAGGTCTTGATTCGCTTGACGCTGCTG", "fluorescence intensity": "3080 a.u."}
